Assay results pooled from the literature.
Protocols differ between the studies behind these lines. ± gives the spread as reported.

SMILES | assay | system | conditions | Cmax
CC[C@H](C)CCCCC(=O)N[C@@H](CCN)C(=O)N[C@H](C(=O)N[C@@H](CCN)C(=O)N[C@H]1CCNC(=O)[C@H]([C@@H](C)O)NC(=O)[C@H](CCN)NC(=O)[C@H](CCN)NC(=O)[C@H](CC(C)C)NC(=O)[C@@H](Cc2ccccc2)NC(=O)[C@H](CCN)NC1=O)[C@@H](C)O | – | critically ill patients, plasma | intravenous, dose not given, steady state, High AUC group, median | 10500 ng/mL
O[C@H]1CCCN[C@@H]1CCCn1cnc2c(Cl)c(Cl)ccc21 | – | healthy CYP2D6 EM and UM, plasma | oral, 150 mg single dose | 239 ng/mL
Cn1ncc(-c2nc(N[C@H]3CC[C@H](N)CC3)ncc2Cl)c1CC1CC1 | HPLC-MS/MS | patients, plasma | oral, 21 mg, day 1 | 120 ng/mL
C[C@]1(CO)Cc2ncn(-c3ccc(C#N)c(Cl)c3)c2C(=O)O1 | – | healthy Japanese adults, plasma | 80 mg once daily, after first dose, multiple dose | 3.82 µM
CCCCCOc1ccc(-c2ccc(-c3ccc(C(=O)N[C@H]4C[C@@H](O)[C@@H](OCC[N+](C)(C)C)NC(=O)[C@@H]5[C@@H](O)[C@@H](C)CN5C(=O)[C@H]([C@@H](C)O)NC(=O)[C@H]([C@H](O)[C@@H](O)c5ccc(O)cc5)NC(=O)[C@@H]5C[C@@H](O)CN5C(=O)[C@H]([C@@H](C)O)NC4=O)cc3)cc2)cc1 | – | adult patients in ICU, plasma | intravenous, 400 mg loading, after first dose, median | 17100 ng/mL
Cc1ncc2n1-c1ccc(Cl)cc1C(c1ccccc1F)=NC2 | – | healthy volunteers, plasma | oral, 5 mg single dose, day 1, given alone | 18 ng/mL
Cc1onc(-c2ccccc2)c1C(=O)N[C@@H]1C(=O)N2[C@@H]1SC(C)(C)[C@@H]2C(=O)O | – | rabbit, serum | intramuscular, 100 mg/kg | ~27000 ng/mL
CCN1CC2(CCN(CCc3cc(F)ccc3F)CC2)O[C@H](C)C1=O | – | ferret, plasma | intraperitoneal, 0.5 mg/kg | 346 ± 97 ng/mL

Excerpt of the above:
SMILES | assay | system | conditions | Cmax
CCCCCOc1ccc(-c2ccc(-c3ccc(C(=O)N[C@H]4C[C@@H](O)[C@@H](OCC[N+](C)(C)C)NC(=O)[C@@H]5[C@@H](O)[C@@H](C)CN5C(=O)[C@H]([C@@H](C)O)NC(=O)[C@H]([C@H](O)[C@@H](O)c5ccc(O)cc5)NC(=O)[C@@H]5C[C@@H](O)CN5C(=O)[C@H]([C@@H](C)O)NC4=O)cc3)cc2)cc1 | – | adult patients in ICU, plasma | intravenous, 400 mg loading, after first dose, median | 17100 ng/mL
